Assay results from different studies.
Each line is one published result; not all experiments were run side by side. Values joined by “and” are separate records of one study, mostly repeats; a detail may differ. ± marks the error that the study gave. In brackets after ≈: the same amount, converted by molar mass.

`OC12CC3CC(C1)CC(NCc1cnc(N4CCCCC4)nc1)(C3)C2` has an EC50 of 4300 ± 300 nM (influenza A virus; cytopathic effect; MDCK, A/WSN/33 H1N1; 48 h).
`O=C(NC12CC3CC(CC(C3)C1)C2)c1cc2cc(Cl)ccc2[nH]1` has an MIC of over 64 µM (Streptococcus pneumoniae; microbial growth, broth dilution; 1629).
The IC50 of `CCC1(O)C([N+](=O)[O-])=NNc2nc(SC)nn21` (centres unmarked) is reported as 32000 nM (unidentified influenza virus; viral replication; MDCK, H1N1; 48 h).
`CCCCCCCCCC(=O)OCC1OC(n2cc(C)c(=O)[nH]c2=O)CC1N(C)C` (centres unmarked) has an EC50 of over 230 nM (parainfluenza virus 3; viral replication; Vero).
For `C=C1C(=O)O[C@H]2C[C@H](C)C(/C=C/C(C)=O)=CC[C@H]12`, the EC50 was over 20000 nM (Human parainfluenza virus 3; viral replication; Vero).
The MIC of `CC[C@H](C)[C@@H]1NC(=O)[C@H](CC(C)C)NC(=O)[C@@H](NC(=O)[C@H](CO)NC(=O)[C@H](CCCNC(=N)N)NC(=O)[C@@H](N)CO)CSSC[C@H](NC(=O)[C@H](CO)NC(=O)[C@H](CCCNC(=N)N)NC(=O)[C@@H](N)CO)C(=O)N[C@@H](CC(C)C)C(=O)N[C@@H]([C@@H](C)CC)C(=O)N[C@@H](C(C)C)C(=O)N[C@H](C(=O)N[C@@H](CCC(N)=O)C(=O)N[C@@H](CCCNC(=N)N)C(=O)N[C@@H](CC(C)C)C(=O)N[C@@H](Cc2ccccc2)C(N)=O)CSSC[C@@H](C(=O)N[C@@H](CCC(N)=O)C(=O)N[C@@H](CCCNC(=N)N)C(=O)N[C@@H](CC(C)C)C(=O)N[C@@H](Cc2ccccc2)C(N)=O)NC(=O)[C@H](C(C)C)NC1=O` is reported as 30 µg/mL (Candidozyma auris; broth microdilution; DSM 21092).
For `CC(=Nn1c(-c2ccccc2)nc2ccccc2c1=O)c1ccc(Cl)cc1`, the EC50 was over 20 µg/mL (human parainfluenza virus 3; viral replication; Vero).
`CSC(=NNC(=O)c1ccc([N+](=O)[O-])cc1)SC` gave an MIC of 100 µg/mL (Mycobacterium; Scrofulaceum).
`Cc1cc(Oc2nc(N3CC[C@@H](c4ccncc4)C3)ncc2F)[nH]n1` — result for “time to growth arrest”: 6 to 10 h (Mycobacterium tuberculosis; time-lapse microscopy; Erdman tdTomato; 0.6 µM).
`CC(C)N1CN(C2c3ccccc3CCc3ccccc32)n2cc(C(=O)O)c(=O)c(O)c2C1=O`: nucleoprotein production “not detected” (lymphocytic choriomeningitis virus; immunofluorescence; concentration not given).
The IC50 of `O=C(O)CC1C2CCCN3CCCC(CN1S(=O)(=O)c1ccc(Cl)cc1)C23` (centres unmarked) is reported as over 200000 nM (Vesicular stomatitis virus; viral entry; VSV G pseudotyped HIV).
`CON(C(=O)c1cn(C)nc1C(F)F)C(C)Cc1c(Cl)cc(Cl)cc1Cl` (centres unmarked) gave an inhibition of 88.1% (Phytophthora infestans; 1.56 µg/mL).
For `COc1ccc(NC(=O)CCc2nc(-c3ccc(N4CCCC4)cc3)no2)cc1OC`, the IC50 was 350 nM (Cedar virus; viral replication, inhibitor; Vero C1008; 48 h).
With `CC(C)(C)OC(=O)NCCC[C@H](NC(=O)c1ccc(NCc2ccc3nc(N)nc(N)c3c2Cl)cc1)C(=O)O` the MIC90 was under 0.2 µM (Mycobacterium tuberculosis; pptT knockdown without ATc).
The EC50 of `O=C1c2ccc(O)c(O)c2C(=O)N1Cc1cccc(Cl)c1F` is reported as 700 ± 100 nM (HIV-1; viral replication; wild type, VSV-G pseudotyped).
`O=C(CCC1CCN(c2cc(NC3CC3)ncn2)CC1)NCc1ccc(F)cc1F` gave an IC50 of 730 nM (Cedar virus; viral replication, inhibitor; Vero C1008; 48 h).
`CCOC(=O)c1cnn2c1NN=C([N+](=O)[O-])C2(O)CC` (centres unmarked) has an IC50 of 336000 nM (unidentified influenza virus; viral replication; MDCK, H1N1; 48 h).
For `Cc1nc(=O)c2cc(CN(C)c3ccc(C(=O)Nc4n[nH]c5ccccc45)s3)ccc2[nH]1`, the MIC50 was 67.6 µM (≈ 30 µg/mL) (Mycobacterium tuberculosis; microbial growth; H37RV).
`C=C(C)C1C2OC(=O)C1C1(O)CC3OC34C(=O)OC2C14C` (centres unmarked) — result for mortality: “not toxic” (Drosophila melanogaster; coated vial bioassay; dieldrin-resistant Rdl A2'S; up to 5000 ppm, adult flies).
`CCOC(=O)C1=C[C@@H](OC(CC)CC)[C@H](NC(C)=O)[C@@H](NCCCCCCCCC(=O)N[C@H](C(=O)N2C[C@@H](O)C[C@H]2C(=O)N[C@@H](C)c2ccc(-c3scnc3C)cc2)C(C)(C)C)C1` — result for activity: “inactive” (Influenza A virus H1N1; viral replication; MDCK; concentration not given).
For `O=C(CCc1nc(-c2ccc(N3CCCC3)cc2)no1)NCCCN1CCOCC1`, the selectivity index was over 63 (Cedar virus; viral replication; Vero C1008; reference: CC50 over IC50).
The EC50 of `CN(C)S(=O)(=O)c1cc(O)c(O)c2c1CN(Cc1ccc(F)c(Cl)c1)C2=O` is reported as 11 ± 3 nM (HIV-1; viral replication; wild type, VSV-G pseudotyped).
For `COC(=O)CCCC1C2CCCN3CCCC(CN1S(=O)(=O)c1ccc(Cl)cc1)C23` (centres unmarked), the IC50 was over 200000 nM (Vesicular stomatitis virus; viral entry; VSV G pseudotyped HIV).
`Cc1nc(=O)c2cc(CN(C)c3cccc(C(=O)Nc4n[nH]c5ccccc45)c3)ccc2[nH]1` has an MIC50 of 97.6 µM (≈ 42.8 µg/mL) (Mycobacterium tuberculosis; pptT knockdown without ATc).
`O=C(Cc1cccs1)N[C@@H]1C(=O)N2C(C(=O)O)=C(CSc3cccc[n+]3[O-])CS[C@H]12` has an MBC of 1.6 µM (Mycobacterium tuberculosis; H37Rv; non-replicating, added: clavulanate 25 µM).
With `Cc1cc(S(=O)(=O)N(C)CC(=O)Nc2ccn(C)c(=O)c2)c2[nH]ncc2c1` the growth inhibition was 0.5 log10 and 1 log10 (Mycobacterium tuberculosis; mouse BMDM, wild type; 30 µM, 144 h).
